# Published values of several laboratories.
# Each numbered part is a random draw from the data of one study; scales do not carry over between parts. Substitutions count along the parent as printed.

# Sample 1 — method: RNA Bind-n-Seq; form: RNA; sample: in vitro; concentration: 200 nM; notes: whole 134-nt RNA, ends assumed; added: 150 mM LiCl; relative to: input library; direction: higher = stronger binding; library: 7-deaza-guanosine replaces G
# Target: Ras GTPase-activating protein-binding protein 1, full length (G3BP1, Homo sapiens, UniProt Q13283)
# Sequence of UniProt Q13283 (whole entry, looked up): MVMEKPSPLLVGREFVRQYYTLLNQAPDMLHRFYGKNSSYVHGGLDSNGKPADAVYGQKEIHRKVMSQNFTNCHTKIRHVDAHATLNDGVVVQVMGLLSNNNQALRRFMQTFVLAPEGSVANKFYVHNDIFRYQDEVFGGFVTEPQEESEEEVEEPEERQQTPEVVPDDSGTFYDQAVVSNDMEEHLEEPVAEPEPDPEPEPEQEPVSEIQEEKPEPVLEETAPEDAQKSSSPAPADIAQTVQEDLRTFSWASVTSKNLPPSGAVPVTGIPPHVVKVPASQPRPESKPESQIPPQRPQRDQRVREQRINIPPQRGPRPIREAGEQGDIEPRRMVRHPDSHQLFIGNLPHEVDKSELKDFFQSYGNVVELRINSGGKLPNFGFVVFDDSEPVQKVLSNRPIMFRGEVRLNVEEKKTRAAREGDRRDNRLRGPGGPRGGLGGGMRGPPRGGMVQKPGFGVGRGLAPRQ
# Shared flanks, not repeated: GGGAGUUCUACAGUCCGACGAUC … UGGAAUUCUCGGGUGUCAAGG
Sequence,log2 enrichment
CUCAAGUCCUGUGCUACACAUCGUAUGUACCGAAUCGGAAAAAGGAGGUUUGGAAAGUAUUAUGUUACGCCGUUCGGAUCUGCACUUCCA,-0.125
AAGUCCUGUGCUACACAUCGUAUGUACCGAAUCGGGGUUUGGGGUUUGGGUUUGGGGAAAGUAUUAUGUUACGCCGUUCGGAUCUGCACU,-0.00838
CUCAAGUCCUGUGCUACACAUCGUAUGUACCGAAUCGGGGCCGGCCGGCCGGGAAAGUAUUAUGUUACGCCGUUCGGAUCUGCACUUCCA,0.786
CUCAAGUCCUGUGCUACACAUCGUAUGUACCGAAUCGGGUUUGGGUGGGUGGGAAAGUAUUAUGUUACGCCGUUCGGAUCUGCACUUCCA,-0.0785
CACAGACAACACGCACCCACACAGACACAGAGGGAAGGGGUUGGGAUGGGAAAAGGGUGCACAGCAGGGCGGGGUAGGACCCCAGCCCCU,0.194
CUCAAGUCCUGUGCUACACAUCGUAUGUACCGAAUCGGUUUGGAAAAAGGAGGAAAGUAUUAUGUUACGCCGUUCGGAUCUGCACUUCCA,0.187
CCUGUGCUACACAUCGUAUGUACCGAAUCGGGAAAAAAAGGAAAAAAAGGGAAAAAAAGGGAAAGUAUUAUGUUACGCCGUUCGGAUCUG,0.079
CCUCAAGUCCUGUGCUACACAUCGUAUGUACCGAAUCGGGGAGGGGAGGAGGAAAGUAUUAUGUUACGCCGUUCGGAUCUGCACUUCCAG,-0.208
AGUCCUGUGCUACACAUCGUAUGUACCGAAUCGGGCCCCCGGCCCCCGGGCCCCCGGGAAAGUAUUAUGUUACGCCGUUCGGAUCUGCAC,-0.953
ACCAUGCAGGUGGGCAUCUUUGGGAAGUGGGGCAAGGGGGGGAUAGGGAGGGGGGUAACACUUUCGGAACAGGUGGUCCCAGGUCGUUUC,-0.0314
CCUGUGCUACACAUCGUAUGUACCGAAUCGGGGAAAGGGGAAAAAGGGGAAAAAAAGGGGAAAGUAUUAUGUUACGCCGUUCGGAUCUGC,0.894

# Sample 2 — target: CCND3, cyclin fold, Cln2 fusion (human); method: yeast growth competition, sequencing; sample: yeast; notes: weak parent motif; relative to: not given; direction: higher = stronger binding
# Starting sequence: PKN2 docking peptide (human); VSAVRKLDFSDTM; partner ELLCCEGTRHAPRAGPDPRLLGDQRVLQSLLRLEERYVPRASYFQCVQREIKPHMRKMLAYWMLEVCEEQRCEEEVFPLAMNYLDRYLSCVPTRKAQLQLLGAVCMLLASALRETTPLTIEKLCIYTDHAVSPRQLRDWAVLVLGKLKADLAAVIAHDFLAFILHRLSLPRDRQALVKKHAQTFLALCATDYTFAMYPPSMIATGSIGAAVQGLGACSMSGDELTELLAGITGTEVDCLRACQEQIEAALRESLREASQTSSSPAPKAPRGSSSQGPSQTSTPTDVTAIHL
Change,normalised enrichment score
V4R,1.51
R5G,-0.417
L7E,-0.2
D11Y,0.24
L7C,-0.166
T12Y,1.07
S10T,0.948
T12I,0.546
R5T,0.17
S10N,0.784
R5E,0.00532
K6A,0.729
T12R,0.832
D8T,0.346
K6Y,0.325
S2G,1.19
D11T,0.352
F9D,-0.0263
V4H,0.0153
S10R,0.488
D11K,0.522
L7T,0.36
L7P,0.165

# Sample 3 — method: RNA Bind-n-Seq; form: RNA; sample: in vitro; concentration: 365 nM; relative to: no-protein control; direction: higher = stronger binding
# Target: RNA binding protein fox-1 homolog 2, RRM domain, GST-SBP tag (RBFOX2, Homo sapiens, UniProt O43251-10, residues 100-194)
# Notes: natural RNA segment, single round, ends assumed
# Shared flanks, not repeated: GGGAGUUCUACAGUCCGACGAUC … UGGAAUUCUCGGGUGCCAA
# Construct (chain): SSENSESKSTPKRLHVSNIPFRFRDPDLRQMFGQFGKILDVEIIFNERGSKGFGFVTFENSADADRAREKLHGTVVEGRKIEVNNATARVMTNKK
Sequence,RBNS enrichment (R)
UGGCAUAAGCUGAAUCCCAAAUUUGAGUUUGGGAAGAACCAGAGAGAAAUGGAUCCCUGAGCUCUGAGCCAAGGGUGAGGAUGGGGAAACUCUAAGCUCCCACCUAAUAA,0.364
CCAUCCAUUCAUCGCCAUGUGUCCGCAAGACUGUCUCCAUGACCCUGAAAAAGGACUCUCGAGAUGAAAUCCUUUAUUCAAAUGGGACAGCAAGAAGGAAAAGCCAAUGU,0.467
UUAUUGUGGAUGGAUGUGGAUAUAUUCUGUACAGAAAACUACUCAUAUGGAAGUGGACUGAAUCCUAUGUAGAAACAUACACUGAACAUUGUUAUUCAUUUUGUAAAAUA,0.684
CUCCUGCUAUGCCAACCUCAGGUGACCUGCUACCAUCCUCUAUACCUUCCUCCGCCAUCUGACUUCUCUAAAGCCAUCUCUCUGGAGGCUGAGGAAGCUGUGGUAACCAU,0.581
AGAAGAGGGGAGGUAAGUCUGGGGGCUACGAAGCCGGGCCCCCACACCCUGGCUGAAGUCAGCUUGACCUAGGUCUUGACCCUCAUCCAGCAAGGGACUCGACAGACCCA,0.307
GUCAAUGGCUUACAGGCUGCUAAGGAGCAGACUGUACUUUAAAGAGAAUUGUGAUCUUCACCUUCUAAUUGAUUCUUUUUAAAAAAAGAAUUCCUAUAUUUUCAGUGGAU,0.597
AUUUCCAGUUCUAUAAUGUUUCAUGUUGAGCCAAAAGAGUAUAUCUUGCACUUUAAAAACGCUGCGUCCUAUUCCAUUUGAAUGUAAAUUCUUAAAAGUUGAGACCAAUU,0.513
AAGAAAAUAUUUUUGUCAAUUCUUAUUCUUUUAUAAUUAUGUGGUAUGUAGACUCAUUAAACAAUUCAAAUGAAAGUGGUGCCGCAGUGAGGCUCCUUCUCAAGUGGUGU,0.417
CAUUCCUUUCUCUGCGCCUGCCCCCAUCUCAGGGACCAUGAUGUCUCAUCCAGUCCUCUCUUCCUCAGGCCACCCAGGGACAGUUCACAUCUGCAGCCUUCAGAAUGUCC,0.588
GGAGACAUGAGAGGGCAGAAUCCUGCCCCCAGCCCUGGGCUGCUUUCGGGGGUCGGGGGAGGGCUCUUCAGAUGCCUCCAUAGGACCAAGUCCCCAUCAUUGCCGGGAGU,0.824
AGGACCACUUGAGUGGGCAGCCAAGCCCAGGCUCGCAGUAUCAAUAAAGCAGUUCUCUGAGGAAUGAUCCUGGGCUCUUGUCAGGCCACCUUGUGCAGCCCCCUCAUCAC,0.454
AAAGGACAUGGAUGAGAAGAGGAGCCCGCUUCCUGUACAUAUAUUUAAGUGACAAACACGGUCAAAAGCUUAAGGGACAGGUUUUAUGGUUGCUUGUGUAAUAAAGCAUG,8.07

# Sample 4 — method: DHFR PCA, deep sequencing; sample: yeast; added: (+)-ABA 4.8 µM; relative to: wild-type fitted maximum; direction: higher = stronger binding
# Target: ABI1, truncated, D143A, DHFR fusion (Arabidopsis thaliana)
# Notes: methotrexate growth selection, single substitutions
# Starting sequence: PYL1, truncated, DHFR fusion (Arabidopsis thaliana); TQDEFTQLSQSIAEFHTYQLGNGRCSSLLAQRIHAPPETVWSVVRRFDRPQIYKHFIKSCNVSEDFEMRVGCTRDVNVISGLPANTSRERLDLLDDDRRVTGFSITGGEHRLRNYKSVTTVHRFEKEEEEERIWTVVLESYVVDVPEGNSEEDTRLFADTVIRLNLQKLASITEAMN; partner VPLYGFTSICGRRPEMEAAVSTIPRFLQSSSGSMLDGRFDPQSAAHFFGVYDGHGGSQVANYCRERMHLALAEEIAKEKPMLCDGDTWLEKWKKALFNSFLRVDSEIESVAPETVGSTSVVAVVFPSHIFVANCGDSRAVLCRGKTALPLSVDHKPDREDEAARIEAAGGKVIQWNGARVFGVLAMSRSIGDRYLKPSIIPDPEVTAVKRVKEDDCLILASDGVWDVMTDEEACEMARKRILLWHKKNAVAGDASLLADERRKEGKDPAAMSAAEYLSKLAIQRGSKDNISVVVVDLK
Change,relative binding score [%]
L166F,-6.5
Y18H,81.9
T6H,73.4
Q2Y,68.5
A170K,95.4
E109S,60.9
D159F,-3.1
T73I,79.6
S9D,68.4
E128Y,62.1
E127K,82.8
S150G,15.6
V76Y,25
V136P,-4.93
H55S,83.4
P50S,0.699
T17P,7.02
K126E,84.8

# Sample 5 — method: protein binding microarray; form: double-stranded DNA, one strand shown; sample: in vitro; concentration: not given; relative to: not given; direction: higher = stronger binding
# Target: Histone acetyltransferase KAT6A, winged helix 1, GST fusion (KAT6A, Homo sapiens, UniProt Q92794, residues 1-85)
# Notes: 8-mer, flanks averaged, mean of 2 arrays, mostly near background
# Residues (chain): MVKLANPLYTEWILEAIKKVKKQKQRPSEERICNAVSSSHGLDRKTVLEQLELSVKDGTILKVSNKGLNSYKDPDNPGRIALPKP
Sequence,E-score
AATAACGG,0.274
TCTTTAAA,-0.136
ATGCGCAG,0.273
CAACTCTC,-0.198
TACCTGCA,0.0082
ACCCTTCC,0.0379
ACACAAGT,-0.184
TCCAACAA,-0.252
TTGCACAA,-0.102
GCTTAAAA,-0.0617
GGTTTCAC,-0.0358
GGTGTTGA,-0.0106
AAGAACCG,-0.047
AGTTACAT,-0.0973
ACAATAAT,-0.0535
AGATAGGA,-0.0744
TCCCCAGA,-0.26
CGCATTGC,0.132
CGCCTCCA,0.123
GAGTCCAC,-0.0381
AGTGTCTG,-0.235
TAAGGTGA,-0.0526
TATAGCCA,-0.0442
CTGCAAGA,0.119
TAGGCACA,-0.0903

# Repeated from above (sample 2):
Change,normalised enrichment score
T12R,0.832
R5T,0.17
S10T,0.948
R5G,-0.417
D11Y,0.24
R5E,0.00532
T12Y,1.07
V4R,1.51
S10N,0.784
D11K,0.522
L7E,-0.2
S10R,0.488
S2G,1.19
L7C,-0.166
D11T,0.352
